{"data": "Measured values of several laboratories", "note": "Each line is one published result; not all experiments were run side by side. “And” joins repeats or separate records; there may be more than shown. Numbers after ± are the reported error."}
{"Structure (SMILES)": "Cc1cc(C(=O)Nc2nc3cccc(C)c3n2[C@H]2CCCCN(C(=O)/C=C/CN(C)C)C2)ccn1", "organism": "Trypanosoma brucei brucei", "system": "2T1 CLK1 overexpressing", "setting": "0.625 µM, DMSO pretreated", "how to read": "baseline: maximum", "measurement": "survival", "value": "61.1% and 62.4% and 66.5% and 54.4%"}
{"Structure (SMILES)": "CCOC(=O)C1(Cc2ccc([N+](=O)[O-])cc2)Oc2cc(F)ccc2N(Cc2ccc([N+](=O)[O-])cc2)C1=O (stereo not shown)", "organism": "Arabidopsis thaliana", "assay": "root length, petri dish germination", "system": "Col-0, 1/2 MS medium", "setting": "200 µg/mL, 7 days, 22 °C, dark", "measurement": "inhibition", "value": "56.1%"}
{"Structure (SMILES)": "CCCCCCCCCC(=O)NCCCC[C@H](NC(=O)CCCCCCCCC)C(=O)N[C@@H](CCCCNC(=O)CCCCCCCCC)C(=O)NCC(=O)NCC(=O)NCC(=O)N[C@@H](CS)C(=O)N[C@@H](CCCNC(=N)N)C(=O)N[C@@H](CCCCN)C(=O)N1CCC[C@H]1C(=O)N[C@@H](CS)C(=O)N[C@@H](CCCNC(=N)N)C(=O)N[C@@H](CCCCN)C(=O)N1CCC[C@H]1C(N)=O", "organism": "Candida albicans", "assay": "broth microdilution", "system": "SP 3902, RPMI-1640", "setting": "48 h, 30 °C", "measurement": "MIC", "value": "32 µM"}
{"Structure (SMILES)": "CCOC(=O)C1(Cc2ccc(F)cc2)Oc2cc(F)ccc2N(Cc2ccc(F)cc2)C1=O (stereo not shown)", "organism": "Arabidopsis thaliana", "assay": "stem length, petri dish germination", "system": "Col-0, 1/2 MS medium", "setting": "200 µg/mL, 7 days, 22 °C, dark", "measurement": "inhibition", "value": "47.6%"}
{"Structure (SMILES)": "C[N+]1=C2C(c3ccc(Cl)cc3)=[N+]([O-])c3ccccc3N2CCC1", "organism": "Fusobacterium nucleatum", "measurement": "MIC90", "value": "8 µg/mL"}
{"Structure (SMILES)": "O=S(=O)(c1ccc(-c2ccc3ncnc(Nc4ccc(OCc5cccc(Cl)c5)c(Cl)c4)c3c2)cc1)N1CCOCC1", "organism": "Plasmodium falciparum", "assay": "parasite growth, SYBR Green", "system": "D6", "setting": "blood stage", "measurement": "EC50", "value": "230 nM"}
{"Structure (SMILES)": "C[C@H](NC(=O)[C@@H](O)c1cc(F)cc(F)c1)C(=O)N[C@@H]1C(=O)N(C)c2ccccc2-c2ccccc21", "organism": "dengue virus 2", "assay": "viral infection, luciferase reporter virus", "setting": "1 nM, 48 h", "measurement": "inhibition", "value": "5.1%"}
{"Structure (SMILES)": "FC(F)(F)c1cccc(CNc2nc(NC3CCN(Cc4ccccc4)CC3)c3nc[nH]c3n2)c1", "organism": "Cryptococcus neoformans", "assay": "RNA-seq, refers to: INP52 (CNAG_01532)", "setting": "48 µg/mL, 3 h", "how to read": "baseline: untreated", "measurement": "mRNA fold change", "value": 1.29}
{"Structure (SMILES)": "C=CCN1C(=O)C(CC=C)(C(=O)OCC)Oc2cc(F)ccc21 (stereo not shown)", "organism": "Arabidopsis thaliana", "system": "Col-0, seed germination, dark", "setting": "200 µg/mL, 7 days, 22 °C", "measurement": "stem length inhibition", "value": "100%"}
{"Structure (SMILES)": "CC(O)CN(CC(C)O)CC(C)O.O=C(O)C(Cl)Cl (stereo not shown)", "organism": "Xanthium sibiricum", "setting": "15 mg/mL, 21 days, pre-emergence, greenhouse", "measurement": "herbicidal inhibition", "value": "0%"}
{"Structure (SMILES)": "CCOC(=O)C1(Cc2ccccc2)Oc2cc(OC)ccc2N(Cc2ccccc2)C1=O (stereo not shown)", "organism": "Arabidopsis thaliana", "assay": "root length, petri dish germination", "system": "Col-0, 1/2 MS medium", "setting": "200 µg/mL, 7 days, 22 °C, dark", "measurement": "inhibition", "value": "58.5%"}
{"Structure (SMILES)": "CC(C)CCCCCCCCC/C=C/C(=O)N[C@@H](CC(=O)O)C(=O)N[C@H]1CNC(=O)[C@@H]2CCCN2C(=O)[C@H](C(C)C)NC(=O)[C@@H](CN)NC(=O)CNC(=O)[C@H](CC(=O)O)NC(=O)CNC(=O)[C@H](CC(=O)O)NC(=O)[C@H](CC(=O)O)NC(=O)[C@H]2CCCCN2C1=O", "organism": "Staphylococcus aureus", "assay": "broth microdilution", "system": "MRSA USA300, Mueller-Hinton broth, Mg2+ 10 mg/L", "setting": "16 h, 37 °C, together with: Ca2+ 10 mM", "measurement": "MIC", "value": "1 µg/mL"}
{"Structure (SMILES)": "COc1ccc(C2=[N+]([O-])c3ccccc3N3CC(C)(C)CN=C23)cc1", "organism": "Fusobacterium nucleatum", "measurement": "MIC", "value": "0.25 to 1 µg/mL"}
{"Structure (SMILES)": "C#CCN1C(=O)C(CC#C)(C(=O)OCC)Oc2ccccc21 (stereo not shown)", "organism": "Arabidopsis thaliana", "system": "Col-0", "setting": "50 µg/mL", "measurement": "seed germination inhibition", "value": "inhibited"}
{"Structure (SMILES)": "CN(C)c1nc(NCc2ccc3ccccc3c2)c(/N=N/c2ccc(Cl)cc2)c(N(C)C)n1", "organism": "Plutella xylostella", "assay": "leaf dipping", "setting": "200 mg/L, 96 h", "measurement": "mortality", "value": "83.3 ± 5.8%"}
{"Structure (SMILES)": "CC(C)(Cl)CCC[C@@]1(C)Oc2ccccc2[C@H]2O[C@H]3CCN(C(=O)Cn4ccc5ccccc54)C[C@H]3C[C@@H]21", "organism": "HIV-1 subtype C", "assay": "viral replication", "setting": "96 h", "measurement": "IC50", "value": "73100 nM"}
{"Structure (SMILES)": "NCCCO.O=C(O)C(Cl)Cl", "organism": "Xanthium sibiricum", "setting": "15 mg/mL, 21 days, post-emergence, greenhouse", "measurement": "herbicidal inhibition", "value": "64%"}
{"Structure (SMILES)": "CC(C)[C@H]1NC(=O)[C@H](Cc2ccccc2)NC(=O)[C@@H](C(C)C)NC(=O)[C@@H](C)NC(=O)[C@H](C)NC(=O)[C@@H](Cc2c(-c3ccc(-c4ccc(-c5ccccc5)cc4)cc3)[nH]c3ccccc23)NC(=O)[C@@H](CO)NC1=O", "organism": "Candida albicans", "assay": "broth dilution", "measurement": "MIC90", "value": "> 50 µM"}
{"Structure (SMILES)": "O=S(=O)(c1ccc(-c2ccc3ncnc(Nc4ccc(OCc5ccc(C(F)(F)F)c(F)c5)c(Cl)c4)c3c2)cc1)N1CCOCC1", "organism": "Plasmodium falciparum", "assay": "parasite growth, SYBR Green", "system": "D6", "setting": "blood stage", "measurement": "EC50", "value": "570 nM"}
{"Structure (SMILES)": "CCCCCCCC(=O)NCCCC[C@H](NC(=O)CCCCCCC)C(=O)N[C@@H](CCCCNC(=O)CCCCCCC)C(=O)NCC(=O)NCC(=O)NCC(=O)N[C@@H](CS)C(=O)N[C@@H](CCCNC(=N)N)C(=O)N[C@@H](CCCCN)C(=O)N1CCC[C@H]1C(=O)N[C@@H](CS)C(=O)N[C@@H](CCCNC(=N)N)C(=O)N[C@@H](CCCCN)C(=O)N1CCC[C@H]1C(N)=O", "organism": "Candida albicans", "assay": "broth microdilution", "system": "SP 3903, RPMI-1640", "setting": "48 h, 30 °C", "measurement": "MIC", "value": "8 µM"}
{"Structure (SMILES)": "CN(C)S(=O)(=O)c1ccccc1-c1ccc2ncnc(Nc3ccc(OCc4cccc(F)c4)c(Cl)c3)c2c1", "organism": "Plasmodium falciparum", "assay": "parasite growth, SYBR Green fluorescence", "system": "C235 (TM91C235), drug-resistant", "measurement": "EC50", "value": "1100 nM"}
{"Structure (SMILES)": "CC(=O)c1c(O)c(C)c(O)c2c1OC1=CC(=O)C(=C(C)NCCCCOC3OC4OC5(C)CCC6C(C)CCC(C3C)C46OO5)C(=O)C12C (mixture of isomers)", "organism": "Plasmodium berghei", "system": "ANKA GFP, NMRI mouse", "setting": "oral, 4 x 10 mg/kg, day 4 post infection", "measurement": "parasitaemia inhibition", "value": "51.2%"}
{"Structure (SMILES)": "CCOC(=O)C1(Cc2cccc(C)c2)Oc2cc(F)ccc2N(Cc2cccc(C)c2)C1=O (stereo not shown)", "organism": "Arabidopsis thaliana", "assay": "stem length, petri dish germination", "system": "Col-0, 1/2 MS medium", "setting": "50 µg/mL, 7 days, 22 °C, dark", "measurement": "inhibition", "value": "44.2%"}
{"Structure (SMILES)": "CCCCCOc1ccc(-c2ccc3ncnc(Nc4ccc(OCc5cccc(F)c5)c(Cl)c4)c3c2)c(F)c1F", "organism": "Plasmodium falciparum", "assay": "parasite growth, SYBR Green fluorescence", "system": "W2, drug-resistant", "measurement": "EC50", "value": "> 15000 nM"}
{"Structure (SMILES)": "CC(C)C[C@H](NC(=O)[C@H](CC(C)C)NC(=O)[C@H](CCCCN)NC(=O)[C@H](Cc1ccccc1)NC(=O)[C@@H](NC(=O)[C@H](CCCNC(=N)N)NC(=O)[C@@H](N)CCCCN)C(C)C)C(=O)N[C@@H](CCCCN)C(=O)N[C@@H](CCCNC(=N)N)C(=O)N[C@@H](Cc1ccc(O)cc1)C(=O)N[C@@H](Cc1c[nH]c2ccccc12)C(=O)N[C@@H](CCCNC(=N)N)C(=O)N[C@@H](CCC(N)=O)C(=O)N[C@@H](CC(C)C)C(=O)N[C@@H](CCCCN)C(=O)N[C@@H](CCCCN)C(=O)N1CCC[C@H]1C(=O)N[C@H](C(=O)N[C@@H](CCCNC(=N)N)C(=O)NCCOCCOCC(=O)O)C(C)C", "organism": "Pseudomonas aeruginosa and Staphylococcus aureus", "assay": "crystal violet", "system": "polymicrobial biofilm", "setting": "16 to 32 µM, 24 h, 24 h mature biofilm", "measurement": "biofilm eradication", "value": "> 80%"}
{"Structure (SMILES)": "C[C@H]1[C@@H](OCc2cn(-c3cc4ccc(O)cc4oc3=O)nn2)O[C@@H]2O[C@@]3(C)CC[C@H]4[C@H](C)CC[C@@H]1[C@@]24OO3", "organism": "Plasmodium berghei", "system": "NK65/GFP, mouse", "setting": "subcutaneous, 22 µmol/kg daily for four days", "measurement": "cure rate", "value": "100%"}
{"Structure (SMILES)": "O=C(c1cccc(-c2ccc3ncnc(Nc4ccc(OCc5cccc(F)c5)c(Cl)c4)c3c2)c1)N1CCCCC1", "organism": "Plasmodium falciparum", "assay": "parasite growth, SYBR Green fluorescence", "system": "C235 (TM91C235), drug-resistant", "measurement": "EC50", "value": "530 nM"}
{"Structure (SMILES)": "CCOC(=O)C1(Cc2ccccc2)Oc2cc(F)ccc2N(Cc2ccccc2)C1=O (stereo not shown)", "organism": "Arabidopsis thaliana", "system": "Col-0, seed germination, dark", "setting": "50 µg/mL, 7 days, 22 °C", "measurement": "root length inhibition", "value": "56.9%"}
{"Structure (SMILES)": "O=c1n(CCNCCOS(=O)(=O)c2ccccc2)c(=O)n(S(=O)(=O)c2ccccc2)c(=O)n1S(=O)(=O)c1ccccc1", "organism": "Alternaria solani", "assay": "broth microdilution", "measurement": "MLC", "value": "64 ± 6 µg/mL"}
{"Structure (SMILES)": "O=S(=O)(c1cccc(-c2ccc3ncnc(Nc4ccc(OCc5cccc(F)c5)c(Cl)c4)c3c2)c1)N1CCOCC1", "organism": "Plasmodium falciparum", "assay": "parasite growth, SYBR Green fluorescence", "system": "W2, drug-resistant", "measurement": "EC50", "value": "400 nM"}
{"Structure (SMILES)": "CN(C(=O)c1ccn2ncc(-c3ccc(C(N)=O)cc3)c2c1)c1ccc(C#N)cn1", "organism": "Cryptosporidium parvum", "system": "UGA1 Nluc, IFN-gamma knockout C57BL/6 mice, faeces", "setting": "oral, 10 mg/kg daily, 120 h post infection, treatment days 11-17", "how to read": "higher means more parasites", "measurement": "faecal Nluc luminescence", "value": "3990 a.u. and 6640 a.u. and 1030 a.u. and 1650 a.u. and 2570 a.u."}
{"note": "For quick reference, copied from above:"}
{"Structure (SMILES)": "CC(C)(Cl)CCC[C@@]1(C)Oc2ccccc2[C@H]2O[C@H]3CCN(C(=O)Cn4ccc5ccccc54)C[C@H]3C[C@@H]21", "organism": "HIV-1 subtype C", "assay": "viral replication", "setting": "96 h", "measurement": "IC50", "value": "73100 nM"}
{"Structure (SMILES)": "CCCCCCCC(=O)NCCCC[C@H](NC(=O)CCCCCCC)C(=O)N[C@@H](CCCCNC(=O)CCCCCCC)C(=O)NCC(=O)NCC(=O)NCC(=O)N[C@@H](CS)C(=O)N[C@@H](CCCNC(=N)N)C(=O)N[C@@H](CCCCN)C(=O)N1CCC[C@H]1C(=O)N[C@@H](CS)C(=O)N[C@@H](CCCNC(=N)N)C(=O)N[C@@H](CCCCN)C(=O)N1CCC[C@H]1C(N)=O", "organism": "Candida albicans", "assay": "broth microdilution", "system": "SP 3903, RPMI-1640", "setting": "48 h, 30 °C", "measurement": "MIC", "value": "8 µM"}
{"Structure (SMILES)": "O=S(=O)(c1cccc(-c2ccc3ncnc(Nc4ccc(OCc5cccc(F)c5)c(Cl)c4)c3c2)c1)N1CCOCC1", "organism": "Plasmodium falciparum", "assay": "parasite growth, SYBR Green fluorescence", "system": "W2, drug-resistant", "measurement": "EC50", "value": "400 nM"}
